Measurements pooled from the literature.
Each numbered part is a random draw from the data of one study; scales do not carry over between parts. Substitutions count along the parent as printed.

Sample 1
Target: UBE2D3 UBC core domain (UniProt P61077)
Technique: yeast two-hybrid
Matrix: yeast
Setting: mostly zero background
Baseline: not given
Reading: higher = stronger interaction
Quantity: lacZ reporter activity
B1: RNF6 RING domain (UniProt Q9Y252); chain NSIDSELGKICSVCISDYVTGNKLRQLPCMHEFHIHCIDRWLSENCTCPICRQPVLGSNIAN
B2: ARIH2 RING domain (UniProt O95376); chain HVPTSHPPHHCAVCMQFVRKENLLSLACQHQFCRSCWEQHCSVLVKDGVGVGVSCMAQDCPLRTPEDFVF
B3: TRIM11 RING domain (UniProt Q96F44); chain LSTNLQEEATCAICLDYFTDPVMTDCGHNFCRECIRRCWGQPEGPYACPECRELSPQRNLRP
B4: VPS8 RING domain (UniProt Q8N3P4); chain TRGLNPKQDYCSICLQQYKRRQEMADEIIVFSCGHLYHSFCLQNKECTVEFEGQTRWTCYKCSSSNKVGKLSE
B5: RNF186 RING domain (UniProt Q9NXI6); chain HSGSTECDLECLVCREPYSCPRLPKLLACQHAFCAICLKLLLCVQDNTWSITCPLCRKVTAVPGGLI
B6: TRIM41 RING domain (UniProt Q8WV44); chain PVQTLQEEAVCAICLDYFTDPVSIGCGHNFCRVCVTQLWGGEDEEDRDELDREEEEEDGEEE
Target sequence (chain): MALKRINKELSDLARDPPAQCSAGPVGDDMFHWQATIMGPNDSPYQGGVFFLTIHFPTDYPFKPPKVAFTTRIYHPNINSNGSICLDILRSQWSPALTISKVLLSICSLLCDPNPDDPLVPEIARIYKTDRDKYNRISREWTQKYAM
B1 (RNF6 RING domain): 0
B2 (ARIH2 RING domain): 0
B3 (TRIM11 RING domain): 0
B4 (VPS8 RING domain): 0
B5 (RNF186 RING domain): 8330
B6 (TRIM41 RING domain): 0
FAEQPSVKLCCQLCCSVFKDPVITTCGHTFCRRCALKSEKCPVDNVKLTVVVNNI (TRAF7 RING domain (UniProt Q6Q0C0)): 0
ASPKIFQKTKCSICNSALELPSVHFLCGHSFHQHCFESYSESDADCPTCLPENRKVMDMI (VPS11 RING domain (UniProt Q9H270)): 0

Sample 2
Target: CCND3, cyclin fold, Cln2 fusion (human)
Technique: yeast growth competition, sequencing
Matrix: yeast
Setting: weak parent motif
Baseline: not given
Reading: higher = stronger binding
Quantity: normalised enrichment score
Parent: viral docking peptide; YKVKRRLVFGADD; partner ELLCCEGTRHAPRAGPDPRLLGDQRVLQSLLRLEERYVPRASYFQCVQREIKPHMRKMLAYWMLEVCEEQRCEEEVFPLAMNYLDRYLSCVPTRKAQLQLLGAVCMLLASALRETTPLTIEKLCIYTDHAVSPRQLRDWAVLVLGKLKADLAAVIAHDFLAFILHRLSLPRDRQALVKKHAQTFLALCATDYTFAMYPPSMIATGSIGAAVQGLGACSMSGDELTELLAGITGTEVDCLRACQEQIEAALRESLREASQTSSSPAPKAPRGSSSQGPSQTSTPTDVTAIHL
YKVKRRLVFGAMD [D12M]: 0.388
YKVKRRLVFGALD [D12L]: 0.168
YKVKRRLVFGAYD [D12Y]: 0.303
YKVKRRFVFGADD [L7F]: 0.864
YKVKARAVFGADD [R5A L7A]: 0.0858
YKRKRRLVFGADD [V3R]: 0.342
YKVKRRLVFRADD [G10R]: 0.508
YKVKRRLFFGADD [V8F]: 0.632

Sample 3
Target: HLA class I histocompatibility antigen, A alpha chain, allele A*25:01 (Homo sapiens, UniProt P04439)
Observed: peptide-MHC binding
Molecule type: peptide
Tested at: concentration not given
Quantity: binding
APDGFYPFK: inactive
YQTYVSPGA: inactive
RSLVCLAPK: inactive
ERTDLFFPV: inactive
PQVLGGLSF: inactive
NTIEELSGY: active
NAMGADYYA: inactive
MHDPHSIPL: inactive

Other studies, line by line
CC[C@]1(O)CC[C@H]2[C@@H]3CCC4=CCCC[C@@H]4[C@H]3CC[C@@]21C  log2 fold change (Sarcocystis neurona; parasite growth; 10 µM, 96 h, second screen; baseline: untreated): 0.42
